Results gathered from unrelated publications.
Protocols differ between the studies behind these lines. Numbers after ± are the reported error.
AKR1C3: Aldo-keto reductase family 1 member C3 (AKR1C3, Homo sapiens, UniProt P42330)
CDK2 with cyclin A2: Cyclin-dependent kinase 2, with cyclin A2 (CDK2, Homo sapiens, UniProt P24941)
Sialyltransferase ST3Gal-I: Sialyltransferase ST3Gal-I (Rattus norvegicus, UniProt Q6H8N0)
DNMT3A catalytic domain: DNA (cytosine-5)-methyltransferase 3A, catalytic domain (DNMT3A, Homo sapiens, UniProt Q9Y6K1)
Ectonucleoside triphosphate diphosphohydrolase 2: Ectonucleoside triphosphate diphosphohydrolase 2 (Homo sapiens, UniProt Q9Y5L3)
ST6GAL1: Beta-galactoside alpha-2,6-sialyltransferase 1 (ST6GAL1, Homo sapiens, UniProt P15907)

The inhibition of Oc1c(C(Nc2nc3ccccc3s2)c2ccccc2OCc2ccccc2)ccc2cccnc12 (centres unmarked) is reported as 91.8 ± 1.18% (Genome polyprotein, NS2B-NS3 protease (Dengue virus type 2, UniProt P14340); enzyme activity, inhibitor, fluorogenic; 25 µM, 0.1% CHAPS, together with: Bz-Nle-Lys-Arg-Arg-AMC substrate).
CC(=O)c1cnc(N)nc1N1CC[C@H]1c1nn2ccc(Cl)c2c(=O)n1-c1ccccc1 has an inhibition of < 10% (Potassium voltage-gated channel subfamily A member 5 (KCNA5, Homo sapiens, UniProt P22460); ion current, inhibitor; 3 µM).
With CCOC(=O)c1cc2c(N)c(C(=O)OC)sc2nc1C the inhibition was 35% (Urea transporter 1 (Homo sapiens, UniProt Q13336); urea transport, inhibitor; MDCK expressing Urea transporter 1; concentration not given).
For C[C@@]12CC[C@@H]3c4cc(Cl)c(O)cc4CC[C@H]3[C@@H]1CCC2=O, the inhibition was 60% (AKR1C3; enzyme activity, inhibitor, absorbance; 10 µM, pH 9).
The inhibition of O=C(CCCCCCOc1ccc(Nc2ncc(F)c(-c3cn(C4CCCCC4)nn3)n2)cc1)NO is reported as -5.87% (CDK2 with cyclin A2; enzyme activity, inhibitor, TR-FRET; 5 µM).
O=C(N[C@@H](CC1CCCCC1)C(=O)N[C@@H](C[C@H]1CCNC1=O)C(=O)C(=O)NC1CC1)OCc1cccc(Cl)c1 gave an inhibition of 0% (Serine protease 1 (PRSS1, Bos taurus, UniProt P00760); enzyme activity, inhibitor; 125 µM, inhibitor/enzyme ratio 250).
The inhibition of Nc1ccccc1NC(=O)c1ccc(Nc2nccc(-c3cn(C4CCCCC4)nn3)n2)cc1 is reported as 23.9% (CDK2 with cyclin A2; enzyme activity, inhibitor, TR-FRET; 5 µM).
For COc1cc(C(=O)NC2CCC(N3CCN(CC4CCC5(CCCC5)C4)CC3)CC2)c(F)cc1Nc1ncc2c(n1)N(C1CCCC1(F)F)CC(F)(F)C(=O)N2C (centres unmarked), the inhibition was 5.71% (Platelet-derived growth factor receptor beta (PDGFRB, Homo sapiens, UniProt P09619); cell-free assay, TR-FRET; 10 µM).
The inhibition of C[C@]12CC[C@@H]3c4cc(Br)c(O)c(Br)c4CC[C@H]3[C@@H]1CCC2=O is reported as 50% (AKR1C3; enzyme activity, inhibitor, absorbance; 10 µM, pH 9).
CC1(CN)CCN(c2cnc(Sc3cccc(Cl)c3Cl)c(N)n2)CC1: inhibition “no inhibition” (Tyrosine-protein phosphatase non-receptor type 11 (PTPN11, Homo sapiens, UniProt Q06124); enzyme activity; concentration not given, together with: DiFMUP).
Under inhibition, COc1ccc(-c2cc(C(F)(F)F)cc(S(=O)(=O)NCC(=O)Nc3ccc(C)cc3)n2)cc1 is recorded as “inactive” (Bifunctional 3'-5' exonuclease/ATP-dependent helicase WRN (WRN, Homo sapiens, UniProt Q14191); DNA unwinding, TAMRA dequenching; concentration not given).
The inhibition of COc1ccc2[nH]cc(C(C[C@@H](NC(=O)CC[C@@H](C)[C@H]3CC[C@H]4[C@@H]5CC[C@@H]6C[C@H](O)CC[C@]6(C)[C@H]5CC[C@]34C)C(=O)O)c3c[nH]c4ccc(OC)cc34)c2c1 is reported as 7% (Sialyltransferase ST3Gal-I; enzyme activity, inhibitor, UPLC; 500 µM).
For C[C@@]12CC[C@@H]3c4ccc(O)c(Br)c4CC[C@H]3[C@@H]1CCC2=O, the inhibition was 58.2% (AKR1C3; enzyme activity, inhibitor, absorbance; 100 µM, pH 9).
CC(C)Cn1cc(-c2nc(Nc3ccc(OCCCCCCC(=O)NO)cc3)ncc2F)nn1 gave an inhibition of 60% (CDK2 with cyclin A2; enzyme activity, inhibitor, TR-FRET; 5 µM).
COC(=O)[C@H]1C[C@H](NC(=O)[C@H](CNC(=O)Cn2cc(C(N)=O)c(=O)[nH]c2=O)NC(=O)CCc2nc(-c3cccnc3)no2)C1 has an inhibition of 34% (NAD-dependent protein deacylase sirtuin-6 (SIRT6, Homo sapiens, UniProt Q8N6T7); demyristoylation; 10 µM).
The inhibition of Cc1cc(Nc2ccc(NC(=O)c3ccc(Nc4c5ccccc5nc5ccccc45)cc3)cc2)nc(N)n1 is reported as 53 ± 2% (DNMT3A catalytic domain; enzyme activity, inhibitor; 32 µM).
For Cc1ccc(S(=O)(=O)N2CCC2=O)cc1, inhibition read “inactive” (Rhomboid protease AarA (Providencia stuartii, UniProt P46116); enzyme activity, inhibitor, fluorogenic peptide; concentration not given).
O=C(Nc1ccc(Cl)cc1)c1cccc(S(=O)(=O)N2CCOCC2)c1 gave an inhibition of 15% (Ectonucleoside triphosphate diphosphohydrolase 2; enzyme activity, inhibitor, absorbance; 100 µM).
CC(C)CCC[C@@H](C)[C@H]1CCC([C@@H]2CC[C@H]3C[C@H](O)CC[C@]3(C)[C@H]2O)[C@]1(C)CC(=O)O (some centres unmarked) has an inhibition of 90.1% (Bile acid receptor (NR1H4, Homo sapiens, UniProt Q96RI1); reporter gene, antagonist, luciferase; HEK-293T; 10 µM).
CN(C)c1ccc(NC(=S)N(C)c2ccccc2)cc1 gave an inhibition of 7% (Microtubule-associated protein tau, 0N3R isoform (MAPT, Homo sapiens, UniProt P10636); fibril formation, ThT fluorescence; 100 µM, 18 h, together with: tau 10 µM).
COc1c(-c2cccc(O)c2)oc2c(OC)c(O)cc(O)c2c1=O gave an inhibition of 74.9 ± 1.5% (Alpha-glucosidase MAL12 (MAL12, Saccharomyces cerevisiae S288c, UniProt P53341); enzyme activity, p-nitrophenyl glucoside substrate; 10 µM, series down to 1 µM).
COc1ccc2c(c1)CC[C@@H]1[C@@H]2CC[C@@]2(C)CCC[C@@H]12 has an inhibition of 21.1% (AKR1C3; enzyme activity, inhibitor, absorbance; 10 µM, pH 9).
With NOCC(=O)O the inhibition was 76% (Cystathionine beta-synthase (CBS, Homo sapiens, UniProt P35520); enzyme activity, inhibitor; 100 µM).
The inhibition of Oc1c(C(Nc2nccs2)c2cccc(OCc3ccccc3)c2)ccc2cccnc12 (centres unmarked) is reported as 83.4% (Genome polyprotein, protease (Dengue virus type 2, UniProt P14340); enzyme activity, inhibitor, fluorescence; 25 µM).
CCOc1c(C(C)(C)O)sc2cnc(Nc3ccc(N4CCC(N5CC6(COC6)C5)CC4)cc3OC)nc12 has an inhibition of 61% (Calcium/calmodulin-dependent protein kinase type 1D (CAMK1D, Homo sapiens, UniProt Q8IU85); enzyme activity, inhibitor; 0.1 µM).
C[C@@]12CC[C@@H]3c4cc(Br)c(O)cc4CC[C@H]3[C@@H]1CCC2=O has an inhibition of 62.6% (AKR1C3; enzyme activity, inhibitor, absorbance; 10 µM, pH 9).
With CC(=O)C12NC(C)(C)CC1(C)C(=O)C1=C2c2c(c3c4n2C(C)(C)CC2=C4C4(CC(C)(C)NC(C)(C4)C2=O)CC3(C)C)C(=O)C(C)(C)N1 (single isomer, unassigned; (+)) the inhibition was 93.8% (Potassium voltage-gated channel subfamily A member 3 (KCNA3, Homo sapiens, UniProt P22001); antagonist; HEK293T; 10 µM).
With COc1ccc2c(c1Cl)CC[C@@H]1[C@@H]2CC[C@@]2(C)C(=O)CC[C@@H]12 the inhibition was ≥ 80% (AKR1C3; enzyme activity, inhibitor, absorbance; 100 µM, pH 9).
For C[C@H](CCC(=O)N[C@H](CC(c1c[nH]c2ccc(NC(=O)OC(C)(C)C)cc12)c1c[nH]c2ccc(NC(=O)OC(C)(C)C)cc12)C(=O)O)[C@H]1CC[C@H]2[C@@H]3CC[C@@H]4C[C@H](O)CC[C@]4(C)[C@H]3CC[C@]12C, the inhibition was 82% (ST6GAL1; enzyme activity, inhibitor, UPLC; 25 µM).
The inhibition of O=C(c1cccc(S(=O)(=O)N2CCOCC2)c1)N1CCOCC1 is reported as 25% (Ectonucleoside triphosphate diphosphohydrolase 2; enzyme activity, inhibitor, absorbance; 100 µM).
For N[C@H]1CCCc2c1[nH]c1ccc(Cl)cc21, the inhibition was 55.6 ± 1.7% (5-hydroxytryptamine receptor 2A (HTR2A, Homo sapiens, UniProt P28223); radioligand binding, agonist radioligand displacement; 10 µM).
CC[C@H](C)[C@H](NC(=O)[C@@H](N)Cc1c[nH]cn1)C(=O)N[C@@H](CCCCN)C(=O)N[C@@H](CCC(N)=O)C(=O)N[C@@H](CC(=O)O)C(=O)N[C@@H](CCC(=O)O)C(=O)N[C@@H](CCCNC(=N)N)C(=O)N[C@H](C(=O)N[C@H](C(=O)N[C@@H](CCSC)C(=O)NCC(=O)N[C@@H](CCC(N)=O)C(=O)N[C@@H](CC(N)=O)C(=O)NCC(=O)O)[C@@H](C)O)C(C)C gave an inhibition of ≤ 40% (Neural cell adhesion molecule L1, extracellular domain (Homo sapiens, UniProt P32004); L1CAM homophilic binding, surface plasmon resonance; 1 to 100 µM, 25 °C, together with: soluble L1CAM ectodomain 50 nM).
The inhibition of CC(C)c1ccc(C(=O)Nc2ccc(CN)cc2)c(O)c1 is reported as < 20% (Procathepsin L (CTSL, Homo sapiens, UniProt P07711); enzyme activity, inhibitor; 10 µM).
The inhibition of Cc1cc(Nc2ccc(NC(=O)c3ccc(NC(=O)c4ccnc5ccccc45)cc3)cc2)nc(N)n1 is reported as 8% (DNMT3A catalytic domain; enzyme activity, inhibitor; 32 µM).
For Cc1nnc(-c2ccc(CNC(=O)CCCCCOc3cccc4c3C(=O)N(C3CCC(=O)NC3=O)C4=O)cc2)nn1 (centres unmarked), the inhibition was 46% (Mitogen-activated protein kinase 1 (MAPK1, Homo sapiens, UniProt P28482); enzyme activity, inhibitor; 30 µM).
The inhibition of COc1cc2c(cc1I)[C@H]1CC[C@@]3(C)C(=O)CC[C@H]3[C@@H]1CC2 is reported as 50.8% (AKR1C3; enzyme activity, inhibitor, absorbance; 100 µM, pH 9).
O=C(/C=C/c1ccccc1)Oc1ccc2c(c1)O/C(=C\C=C\c1ccccc1)C2=O has an inhibition of 79.6% (Phosphatidylinositol 3-kinase catalytic subunit type 3 (PIK3C3, Homo sapiens, UniProt Q8NEB9); enzyme activity, inhibitor, ADP detection; 0.1 µM).
The inhibition of C[C@@]12CC[C@@H]3c4cc(I)c(O)c(I)c4CC[C@H]3[C@@H]1CCC2=O is reported as 50% (AKR1C3; enzyme activity, inhibitor, absorbance; 100 µM, pH 9).
CN(C1COC1)C(C)(C)/C=C(\C#N)C(=O)N1CCC[C@H]1Cn1nc(-c2ccc(Oc3ccccc3)cc2F)c2c(N)ncnc21 gave an inhibition of > 90% (Cytoplasmic tyrosine-protein kinase BMX (BMX, Homo sapiens, UniProt P51813); 0.1 µM, mean).
The inhibition of C[C@H](CCC(=O)N[C@H](CC(c1c[nH]c2ccc(OCc3ccccc3)cc12)c1c[nH]c2ccc(OCc3ccccc3)cc12)C(=O)O)[C@H]1CC[C@H]2[C@@H]3CC[C@@H]4C[C@H](O)CC[C@]4(C)[C@H]3CC[C@]12C is reported as 4% (Sialyltransferase ST3Gal-I; enzyme activity, inhibitor, UPLC; 500 µM).
CC(C)CC(NC(=O)CCn1nc(Cc2ccccc2)c2ccccc2c1=O)C(=O)NN (centres unmarked) has an inhibition of 92.4% (Vascular endothelial growth factor receptor 2 (KDR, Homo sapiens, UniProt P35968); enzyme activity, inhibitor; 10 µM).
For C[C@H](CCC(c1c[nH]c2ccccc12)c1c[nH]c2ccccc12)[C@H]1CC[C@H]2[C@@H]3CC[C@@H]4C[C@H](O)CC[C@]4(C)[C@H]3CC[C@]12C, the inhibition was 24% (ST6GAL1; enzyme activity, inhibitor, UPLC; 25 µM).
CCCCCCCn1c(=O)[nH]c2ccccc21 gave an inhibition of 50% (Intermediate conductance calcium-activated potassium channel protein 4 (KCNN4, Homo sapiens, UniProt O15554); ion current, inhibitor, whole-cell patch clamp; 50 µM).
O=C(N1CCCC1)n1cc(-c2ccc(-c3ccccc3)cc2)nn1: inhibition “inhibited” (Platelet-activating factor acetylhydrolase 2, cytoplasmic (Mus musculus, UniProt Q8VDG7); probe labelling, inhibitor, gel-based competitive ABPP; mouse T-cell proteome; 10 nM, 30 min).

For quick reference, copied from above:
CC(C)CC(NC(=O)CCn1nc(Cc2ccccc2)c2ccccc2c1=O)C(=O)NN (centres unmarked) has an inhibition of 92.4% (Vascular endothelial growth factor receptor 2 (KDR, Homo sapiens, UniProt P35968); enzyme activity, inhibitor; 10 µM).
For C[C@H](CCC(c1c[nH]c2ccccc12)c1c[nH]c2ccccc12)[C@H]1CC[C@H]2[C@@H]3CC[C@@H]4C[C@H](O)CC[C@]4(C)[C@H]3CC[C@]12C, the inhibition was 24% (ST6GAL1; enzyme activity, inhibitor, UPLC; 25 µM).
CCCCCCCn1c(=O)[nH]c2ccccc21 gave an inhibition of 50% (Intermediate conductance calcium-activated potassium channel protein 4 (KCNN4, Homo sapiens, UniProt O15554); ion current, inhibitor, whole-cell patch clamp; 50 µM).
O=C(N1CCCC1)n1cc(-c2ccc(-c3ccccc3)cc2)nn1: inhibition “inhibited” (Platelet-activating factor acetylhydrolase 2, cytoplasmic (Mus musculus, UniProt Q8VDG7); probe labelling, inhibitor, gel-based competitive ABPP; mouse T-cell proteome; 10 nM, 30 min).
